Results of several laboratories.
Parts stem from different laboratories: compare values within a part only. Positions count from the first letter of the parent shown.

Sample 1
Target: CCNB2, cyclin fold, Cln2 fusion (human)
Technique: yeast growth competition, sequencing
Medium: yeast
Notes: weak parent motif
Relative to: not given
Direction: higher = stronger binding
Starting sequence: E2F1 docking peptide (human); PPVKRRLDLETDH
Under “normalised enrichment score”, `PPVKMRLDLETDH [R5M]` is recorded as -0.29.
`PYVKRRLDLETDH [P2Y]`: “normalised enrichment score” 0.561.
`IPVKRRLDLETDH [P1I]`: “normalised enrichment score” 0.161.
Under “normalised enrichment score”, `PPVKRRLDLETDF [H13F]` is recorded as 0.606.
`PPVKRRLDLEYDH [T11Y]` — result for “normalised enrichment score”: 1.42.
`PPVSRRLDLETDH [K4S]`: “normalised enrichment score” -0.00712.
`PPVKRRLDLESDH [T11S]`: “normalised enrichment score” 0.723.
Under “normalised enrichment score”, `DPVKRRLDLETDH [P1D]` is recorded as 0.409.
`PPVARRLDLETDH [K4A]`: “normalised enrichment score” 0.334.
`PPVKRRLDLEEDH [T11E]` — result for “normalised enrichment score”: 0.564.
`PPVKWRLDLETDH [R5W]`: “normalised enrichment score” 0.192.
`PPIKRRLDLETDH [V3I]` — result for “normalised enrichment score”: 0.387.
`PPVKRRLDLEIDH [T11I]`: “normalised enrichment score” -0.333.
For `PPVKRRADLETDH [L7A]`, “normalised enrichment score” read 0.0385.
Under “normalised enrichment score”, `PPVGRRLDLETDH [K4G]` is recorded as 0.198.
`PPVKRRFDLETDH [L7F]` — result for “normalised enrichment score”: -0.241.
For `PPVKRPLDLETDH [R6P]`, “normalised enrichment score” read -0.261.
Under “normalised enrichment score”, `PPVKKRLDLETDH [R5K]` is recorded as 0.0381.
`PPVKRRLDLHTDH [E10H]` — result for “normalised enrichment score”: 0.745.
`PPAKRRLDLETDH [V3A]`: “normalised enrichment score” 0.899.
`PPVKRRLDLETIH [D12I]` — result for “normalised enrichment score”: 0.0476.
`PPVKRRLDLETFH [D12F]`: “normalised enrichment score” 0.943.
Under “normalised enrichment score”, `FPVKRRLDLETDH [P1F]` is recorded as 1.16.
`PPVKRRLDLETDS [H13S]`: “normalised enrichment score” 0.594.
`PPVKRRVDLETDH [L7V]` — result for “normalised enrichment score”: -0.0472.

Sample 2
Target: ABI1, truncated, D143A, DHFR fusion (Arabidopsis thaliana)
Technique: DHFR PCA, deep sequencing
Medium: yeast
Notes: methotrexate growth selection, single substitutions
Together with: (+)-ABA 0.39 µM
Relative to: wild-type fitted maximum
Direction: higher = stronger binding
Starting sequence: PYL1, truncated, DHFR fusion (Arabidopsis thaliana); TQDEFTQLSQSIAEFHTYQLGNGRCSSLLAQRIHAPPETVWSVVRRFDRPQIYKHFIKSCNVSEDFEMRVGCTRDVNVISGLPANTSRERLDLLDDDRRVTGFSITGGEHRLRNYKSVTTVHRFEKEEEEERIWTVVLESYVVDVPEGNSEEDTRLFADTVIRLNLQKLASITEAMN; partner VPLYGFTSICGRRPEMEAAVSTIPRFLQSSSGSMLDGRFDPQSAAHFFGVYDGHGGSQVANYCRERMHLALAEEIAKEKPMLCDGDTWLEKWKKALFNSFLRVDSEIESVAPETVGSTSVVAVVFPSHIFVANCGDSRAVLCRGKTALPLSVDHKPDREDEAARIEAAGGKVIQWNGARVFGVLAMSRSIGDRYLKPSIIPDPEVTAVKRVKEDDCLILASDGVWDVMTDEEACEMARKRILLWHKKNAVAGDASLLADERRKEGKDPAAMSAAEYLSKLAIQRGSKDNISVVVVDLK
`T101Y` — result for “relative binding score”: 4.27%.
`G23F` — result for “relative binding score”: 8.55%.
Under “relative binding score”, `R45H` is recorded as -5.11%.
`F47C`: “relative binding score” -3.36%.
`C72A`: “relative binding score” 73.8%.
`Q7E` — result for “relative binding score”: 47.7%.
`S140Q`: “relative binding score” 21.1%.
Under “relative binding score”, `E109L` is recorded as -0.535%.
`F103Y`: “relative binding score” 56%.
For `V40Y`, “relative binding score” read -2.8%.
`L156C` — result for “relative binding score”: 49.2%.
For `P83L`, “relative binding score” read 1.48%.
`D144Y` — result for “relative binding score”: 4.68%.
`L8I`: “relative binding score” -0.462%.
`R90W` — result for “relative binding score”: -15.1%.
For `T39K`, “relative binding score” read 32.5%.
Under “relative binding score”, `I79V` is recorded as 62.5%.
Under “relative binding score”, `S42L` is recorded as 1.58%.

Sample 3
Target: OGT, full length, His-tagged (human)
Technique: phage display, sequencing
Medium: in vitro
Tested at: 1 µg OGT
Notes: single substitutions, 15-mer displayed peptide, unchanged parent 5.27
Relative to: input library
Direction: higher = stronger binding
Starting sequence: peptide; GDFPVMFMPKYSIIY
With `GDIPVMFMPKYSIIY [F3I]` the fold enrichment was 5.44 fold.
With `LDFPVMFMPKYSIIY [G1L]` the fold enrichment was 6.5 fold.
With `GDFPVMFHPKYSIIY [M8H]` the fold enrichment was 1.51 fold.
The fold enrichment of `GDFPVMFMPKTSIIY [Y11T]` is reported as 1.04 fold.
For `GDFPVEFMPKYSIIY [M6E]`, the fold enrichment was 3.38 fold.
`GDFPVMFMPKLSIIY [Y11L]` gave a fold enrichment of 4.1 fold.
`GDFPVMFTPKYSIIY [M8T]` has a fold enrichment of 1.22 fold.
For `GDFPVMFMPKYSIIP [Y15P]`, the fold enrichment was 1.33 fold.
`GDFPVMFMPKYSYIY [I13Y]` gave a fold enrichment of 1.17 fold.
`GDFHVMFMPKYSIIY [P4H]` has a fold enrichment of 4.95 fold.
`GYFPVMFMPKYSIIY [D2Y]` gave a fold enrichment of 6.15 fold.
For `GDFPVMFMTKYSIIY [P9T]`, the fold enrichment was 4.32 fold.
`GDFPGMFMPKYSIIY [V5G]` gave a fold enrichment of 19 fold.
For `GEFPVMFMPKYSIIY [D2E]`, the fold enrichment was 3.75 fold.
With `GDFPVMGMPKYSIIY [F7G]` the fold enrichment was 0.779 fold.
`GFFPVMFMPKYSIIY [D2F]` gave a fold enrichment of 6.14 fold.
`GDFPVMFMPKISIIY [Y11I]` has a fold enrichment of 6.19 fold.
For `GDFPVNFMPKYSIIY [M6N]`, the fold enrichment was 5.39 fold.
`GDFPFMFMPKYSIIY [V5F]` gave a fold enrichment of 5.48 fold.
The fold enrichment of `GDFPYMFMPKYSIIY [V5Y]` is reported as 4.73 fold.
The fold enrichment of `GDFPVMFMRKYSIIY [P9R]` is reported as 3.05 fold.
For `GDDPVMFMPKYSIIY [F3D]`, the fold enrichment was 5.54 fold.
The fold enrichment of `GDFEVMFMPKYSIIY [P4E]` is reported as 10.8 fold.
The fold enrichment of `GDFPVMFMPKMSIIY [Y11M]` is reported as 2.28 fold.
With `GDFPVMSMPKYSIIY [F7S]` the fold enrichment was 0.948 fold.

Sample 4
Target: Ras GTPase-activating protein-binding protein 1, RRM domain (G3BP1, Homo sapiens, UniProt Q13283)
UniProt Q13283, sequence (whole entry, looked up): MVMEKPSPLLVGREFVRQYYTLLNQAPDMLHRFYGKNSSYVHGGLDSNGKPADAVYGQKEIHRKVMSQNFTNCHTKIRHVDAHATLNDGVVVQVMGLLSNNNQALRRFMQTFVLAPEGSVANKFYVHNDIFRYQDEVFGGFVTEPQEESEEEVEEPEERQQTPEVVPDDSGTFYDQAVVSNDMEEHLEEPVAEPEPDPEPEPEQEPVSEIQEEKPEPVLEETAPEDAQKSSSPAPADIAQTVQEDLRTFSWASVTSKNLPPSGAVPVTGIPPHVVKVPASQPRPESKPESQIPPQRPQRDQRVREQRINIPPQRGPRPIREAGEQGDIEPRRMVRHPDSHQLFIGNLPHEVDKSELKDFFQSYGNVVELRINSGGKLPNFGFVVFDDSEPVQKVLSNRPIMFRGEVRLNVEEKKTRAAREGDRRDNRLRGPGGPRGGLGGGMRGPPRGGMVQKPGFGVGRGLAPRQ
Technique: RNA Bind-n-Seq
Molecule type: RNA
Medium: in vitro
Tested at: 1 µM
Notes: whole 134-nt RNA, ends assumed
Together with: 150 mM KCl
Relative to: input library
Direction: higher = stronger binding
Shared flanks, not repeated: GGGAGUUCUACAGUCCGACGAUC … UGGAAUUCUCGGGUGUCAAGG
`UAACUUUAGAGGAGGAUCUGAUGGAUAUGGCAGUGGACGUGGAUUUGGGGAUGGCUACAAUGGGUAUGGAGGAGGACCUGGAGGUGGCAA` gave a log2 enrichment of -0.413.
The log2 enrichment of `GGGCCCUGGUGGCAUGCGGGGAGGAAGAGGUGGCCUCAUGGAUCGUGGUGGUCCCGGUGGAAUGUUCAGAGGUGGCCGUGGUGGAGACAG` is reported as 0.822.
The log2 enrichment of `CUCAAGUCCUGUGCUACACAUCGUAUGUACCGAAUCGGGUGGGAGGGAAAGGGAAAGUAUUAUGUUACGCCGUUCGGAUCUGCACUUCCA` is reported as 0.615.
For `UCAAGUCCUGUGCUACACAUCGUAUGUACCGAAUCGGGGCGGGGCGGGGCGGGGAAAGUAUUAUGUUACGCCGUUCGGAUCUGCACUUCC`, the log2 enrichment was 0.656.
The log2 enrichment of `UCAAGUCCUGUGCUACACAUCGUAUGUACCGAAUCGGAAAGGUGGUUUUUUUGGAAAGUAUUAUGUUACGCCGUUCGGAUCUGCACUUCC` is reported as -0.177.
With `UGGGAGGUGGAUUUUGUUUAUUUUUUUAGCUCAUUUCCAGGCGUGGGAAUUUUUUUUUAAUAUGUGUCAUGAAUAAAGUUGUUUUUGAAA` the log2 enrichment was 1.57.
`AAGUCCUGUGCUACACAUCGUAUGUACCGAAUCGGGUUUUGGGUUUUGGGUUUUGGGAAAGUAUUAUGUUACGCCGUUCGGAUCUGCACU` gave a log2 enrichment of 0.473.
`UAACUUUAGAGGAGGAUCUGAUGGAUAUGGCAGUGGACGUGGAUUUGGGGAGGGCUAUAAUGGGUAUGGAGGAGGACCUGGAGGUGGCAA` gave a log2 enrichment of -0.178.
`UAACUUUAGAGGAGGAUCUGAUGGAUAUGGCAGUGGACGUGGAUUUGGGGAUGGCUAUAAUGGGUAUGGAGGAGGACCUGGAGUUGGCAA` has a log2 enrichment of -0.406.
`CAAGUCCUGUGCUACACAUCGUAUGUACCGAAUCGGUGGAAAAAGGAAAAAAAGGAAAGUAUUAUGUUACGCCGUUCGGAUCUGCACUUC` gave a log2 enrichment of 0.0444.
For `UGGCCCUGGUGGCAUGCGGGAAGGAAGAGGUGGCCUCAUGGAUCGUGGUGGUCCCGGUGGAAUGUUCAGAGGUGGCCGUGGUGGAGACAG`, the log2 enrichment was 0.952.
With `UCAAGUCCUGUGCUACACAUCGUAUGUACCGAAUCGGGGAAGGGGAAGGGGAAGGAAAGUAUUAUGUUACGCCGUUCGGAUCUGCACUUC` the log2 enrichment was -0.119.
The log2 enrichment of `UGGGAGACGAUCGCGAUGAACACGGUGCUGUCGCGGGCGAACUCACUGUUCGCCUUCUCGCUGAGCGUGAUGGCGGCGCUCACCUUCGGC` is reported as -0.612.
For `GUGCUACACAUCGUAUGUACCGAAUCGGGGAAAAAAAGGGGAAAAAAAGGGGUUUUUUUGGGGAAAGUAUUAUGUUACGCCGUUCGGAUC`, the log2 enrichment was 1.36.

Sample 5
Target: Sal-like protein 4, full length isoform A (SALL4, Homo sapiens, UniProt Q9UJQ4, residues 1-1053)
UniProt Q9UJQ4, sequence (whole entry, looked up): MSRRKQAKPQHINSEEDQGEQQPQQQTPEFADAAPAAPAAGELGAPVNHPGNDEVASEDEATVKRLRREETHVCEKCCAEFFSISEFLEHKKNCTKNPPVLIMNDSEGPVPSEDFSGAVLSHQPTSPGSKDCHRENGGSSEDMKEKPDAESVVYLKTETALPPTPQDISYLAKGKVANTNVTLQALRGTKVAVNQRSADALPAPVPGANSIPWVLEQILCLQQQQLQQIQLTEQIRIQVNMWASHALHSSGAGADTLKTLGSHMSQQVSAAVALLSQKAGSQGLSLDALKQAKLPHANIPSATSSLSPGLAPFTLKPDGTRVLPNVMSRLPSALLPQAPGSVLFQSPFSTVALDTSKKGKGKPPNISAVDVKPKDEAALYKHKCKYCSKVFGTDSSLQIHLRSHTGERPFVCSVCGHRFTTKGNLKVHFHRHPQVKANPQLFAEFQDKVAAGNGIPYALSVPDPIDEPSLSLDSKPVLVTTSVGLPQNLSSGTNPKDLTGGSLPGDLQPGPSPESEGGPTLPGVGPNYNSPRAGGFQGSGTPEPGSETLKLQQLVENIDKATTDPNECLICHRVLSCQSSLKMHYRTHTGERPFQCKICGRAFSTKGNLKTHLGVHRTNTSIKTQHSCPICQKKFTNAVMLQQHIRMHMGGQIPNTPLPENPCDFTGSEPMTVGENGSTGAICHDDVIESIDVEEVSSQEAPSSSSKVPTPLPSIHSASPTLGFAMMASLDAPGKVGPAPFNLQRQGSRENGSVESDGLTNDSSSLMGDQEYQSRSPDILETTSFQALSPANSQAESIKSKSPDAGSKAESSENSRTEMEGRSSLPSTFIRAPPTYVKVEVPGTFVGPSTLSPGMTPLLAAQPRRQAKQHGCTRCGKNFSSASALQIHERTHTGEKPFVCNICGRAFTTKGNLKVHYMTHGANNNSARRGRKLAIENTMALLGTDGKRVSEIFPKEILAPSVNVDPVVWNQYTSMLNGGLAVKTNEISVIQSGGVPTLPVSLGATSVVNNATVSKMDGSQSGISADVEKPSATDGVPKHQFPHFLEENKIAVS
Technique: universal PBM
Molecule type: double-stranded DNA, one strand shown
Medium: in vitro
Tested at: 600 nM
Notes: 8-mer, flanks averaged, mean of replicates
Direction: higher = stronger binding
With `GCCTTCTA` the E-score was -0.0439.
With `AATAATCT` the E-score was 0.403.
The E-score of `AATACCTC` is reported as 0.21.
The E-score of `AGCCCAAA` is reported as 0.0415.
`CGTAGAGA` gave an E-score of -0.0196.
The E-score of `CGCCTCAG` is reported as -0.189.
The E-score of `AAGATCTA` is reported as -0.000365.
The E-score of `GTCAAGCA` is reported as -0.216.
For `GTACCGAC`, the E-score was -0.228.
`AGGGGCCG` gave an E-score of -0.347.
`ATTCAATA` has an E-score of 0.375.
`AGGTAACT` gave an E-score of -0.0478.
`ACCTTGAT` gave an E-score of 0.0563.
For `CGCGTTTA`, the E-score was 0.162.
The E-score of `AGGTCTTG` is reported as -0.148.
The E-score of `AGTGTGGC` is reported as -0.108.
With `AAGCCCAC` the E-score was -0.21.
With `AGGTGAGA` the E-score was 0.00316.
The E-score of `AAACCAGG` is reported as -0.126.
`TCGCTAAA` gave an E-score of 0.0238.
With `ACTGTGCA` the E-score was -0.0392.
With `CGGCCAGA` the E-score was -0.282.
`ACAGCTTC` has an E-score of 0.0458.
For `ATCAAGCG`, the E-score was 0.0169.
For `CGATATCG`, the E-score was 0.112.

Some of these lines once more (sample 1):
`IPVKRRLDLETDH [P1I]`: “normalised enrichment score” 0.161.
Under “normalised enrichment score”, `PPVKRRLDLETDF [H13F]` is recorded as 0.606.
`PPVKRRLDLEYDH [T11Y]` — result for “normalised enrichment score”: 1.42.
`PPVSRRLDLETDH [K4S]`: “normalised enrichment score” -0.00712.
`PPVKRRLDLESDH [T11S]`: “normalised enrichment score” 0.723.
Under “normalised enrichment score”, `DPVKRRLDLETDH [P1D]` is recorded as 0.409.
`PPVARRLDLETDH [K4A]`: “normalised enrichment score” 0.334.
`PPVKRRLDLEEDH [T11E]` — result for “normalised enrichment score”: 0.564.
`PPVKWRLDLETDH [R5W]`: “normalised enrichment score” 0.192.
`PPIKRRLDLETDH [V3I]` — result for “normalised enrichment score”: 0.387.
`PPVKRRLDLEIDH [T11I]`: “normalised enrichment score” -0.333.
For `PPVKRRADLETDH [L7A]`, “normalised enrichment score” read 0.0385.
Under “normalised enrichment score”, `PPVGRRLDLETDH [K4G]` is recorded as 0.198.
`PPVKRRFDLETDH [L7F]` — result for “normalised enrichment score”: -0.241.
For `PPVKRPLDLETDH [R6P]`, “normalised enrichment score” read -0.261.
Under “normalised enrichment score”, `PPVKKRLDLETDH [R5K]` is recorded as 0.0381.
